Measurements collected from several papers.
Every numbered part comes from another study and shows a few of its results, in no order.

Set 1 — method: RNA Bind-n-Seq; form: RNA; matrix: in vitro; concentration: not given; relative to: input RNA pool; reading: higher = stronger binding
Target: RING finger protein unkempt homolog, zinc fingers 1-6, GST-SBP tag (UNK, Homo sapiens, UniProt Q9C0B0, residues 30-357)
UniProt Q9C0B0, sequence (30-357, looked up): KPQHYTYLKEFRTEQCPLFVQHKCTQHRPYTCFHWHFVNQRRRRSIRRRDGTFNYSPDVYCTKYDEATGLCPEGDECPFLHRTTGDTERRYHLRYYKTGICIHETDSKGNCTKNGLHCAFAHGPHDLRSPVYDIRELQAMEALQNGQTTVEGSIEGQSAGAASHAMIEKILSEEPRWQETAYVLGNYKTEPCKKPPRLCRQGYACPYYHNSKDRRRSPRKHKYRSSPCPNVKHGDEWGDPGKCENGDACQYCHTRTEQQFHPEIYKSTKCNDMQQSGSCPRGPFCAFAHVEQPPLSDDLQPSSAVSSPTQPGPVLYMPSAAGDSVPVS
Notes: RNA with constant flanks, human and mouse sites, ends assumed
All sequences stand within: GGGAGUUCUACAGUCCGACGAUC … CAACAGAGGAUUGAGCAUCA
Strand | bound/input enrichment [ratio]
CAGGGAGUGGGUGACAUAGAGCAUUCUAUGCCUUUGACAUUGUCAUAGGAUAAGCUGUGUUAGCACUUCCUCAGGAAAUGAGAUUGAUUUUUACAAUAGCCAAUAACAUUUGCACUUUAU | 0.516
ACAAGACAAACAUAUGUUGGAUUCGCCUCAAAAAUCAAACAUCAAAUACAGAGGAAAUGGAUUAUCCAUCACUGGGACAGAGCAAUUUGAAAGGAAAUUAUCUUCACCAAAAAAACUUAA | 0.142
GGACUUGAACAACUCACCAAGUCUCCAGUGGAAUUUGUAGAAUAUAACAAAAUGCAGCUUAGCAGGAUAUAUCCAAAAGGAACACGUGUGGAUUCAUCCAACUAUAUGCCUCAGCUCUUC | 0.868
AAAAAAAGAAUAAAAAUCAGCCAUUUUCAACAAUUUAUAUUAUUUUUAAAAAUAAAUUUCACUAGUGCAUGGUUUUAAAAAGGAGAGAGAAUGCAACAGGGUGAUACAAAGAUACACCAU | 1.3
CAGCCUAUGGCCCAGGCCGCCUUGGGUAUUUCUGCUCAAGGUAACCACAUCCCUCUUUAAAAAUUCCGCCGAAAAAGAGAAGACGCUUUACCCGACUCUUUGGGCCGUUAUCUCACGUUG | 0.294
CAAGUCUAACAAUAUUUCCAUUUCUGAAAGGCCAGUGAAUGUCCUGCAGAAAAUGAGGUUACUAGACCUUUCCUCCAACCCAUCAAUUGAUGAAAGCCAGCUGAGCCUUAUAGCAGAUCU | 0.326
AACCAAGGCAUUGCUCCUGUCCAAGUCUGUACUAAUCUCUUGAUCAAGCAGGUGAUUGAAGUAGCUUGUGGUUCACAUCAUUCGAUGGCUUUAGCAGCUGAUGGAGAGUUAUUUGCUUGG | 0.11
UCUUCACUAACCUAUUUUUAUUCAACACAGGCCCUUGCUCCCUCUGUGUCCUUGUGGAUUGCUUUACACGCCACCUUAUUGAUGGGUCAUCUUGCCAGGACUCCGGGCAAGGCUUUUCUA | 0.937
CAGAUCAGUAAGCAAGGUCUUUGUGGGGCAGUUGUCGACCUCACCAAGACAUCUGAACAUAUUCAGUUUUCAGUAGAAGAACUUAAAAAUUUGUUCACAUUACAUGAAAGUUCAGAUUGU | 0.177
AAAUUUAAGUUUUCUUGUAUUGAAAAUAACCUAUGAUUGUAUGUUUUGCAUUCCUAGAAGUAGGUUAACUGUGUUUUUAAAUUGUUAUAACUUCACACCUUUUUGAAAUCUGCCCUACAA | 0.705
ACAAUUGGUUUUAAUGUGGAAACUGUGGAAUACAAAAAUCUAAAAUUCACCAUUUGGGAUGUGGGUGGAAAACACAAAUUAAGACCAUUGUGGAAACAUUAUUACCUCAAUACACAAGCU | 0.629

Set 2 — method: universal PBM; form: double-stranded DNA, one strand shown; matrix: in vitro; concentration: not given; reading: higher = stronger binding
Target: Sal-like protein 4, full length isoform B (SALL4, Homo sapiens, UniProt Q9UJQ4-2, residues 1-616)
Notes: 8-mer, flanks averaged, mean of replicates
Strand | E-score
GCAATTAA | 0.231
CAGGGGGA | -0.223
ATCAATCG | 0.115
GGAGCACA | -0.059
ATCGCGAT | 0.0657
CCCCATAG | -0.0826
TCGCATAA | 0.257
GAACAACA | -0.012
GCGCGGTA | -0.219
CACATCGC | -0.184
CTCATATC | 0.174
ATCCCTAG | 0.0288
CATAGTTC | 0.0103
ACGATCAC | -0.0948
AGGGGGGC | -0.39
AGAAATCC | -0.0355
CATGTTAA | 0.2

Set 3 — method: EMSA with sequencing; form: double-stranded DNA, one strand shown; matrix: in vitro; concentration: 10 and 20 nM; relative to: negative control set to 0; reading: higher = stronger binding
Target: Hepatocyte nuclear factor 3-alpha (Foxa1, Mus musculus, UniProt P35582, residues 1-468, full length assumed)
UniProt P35582, sequence (whole entry, looked up): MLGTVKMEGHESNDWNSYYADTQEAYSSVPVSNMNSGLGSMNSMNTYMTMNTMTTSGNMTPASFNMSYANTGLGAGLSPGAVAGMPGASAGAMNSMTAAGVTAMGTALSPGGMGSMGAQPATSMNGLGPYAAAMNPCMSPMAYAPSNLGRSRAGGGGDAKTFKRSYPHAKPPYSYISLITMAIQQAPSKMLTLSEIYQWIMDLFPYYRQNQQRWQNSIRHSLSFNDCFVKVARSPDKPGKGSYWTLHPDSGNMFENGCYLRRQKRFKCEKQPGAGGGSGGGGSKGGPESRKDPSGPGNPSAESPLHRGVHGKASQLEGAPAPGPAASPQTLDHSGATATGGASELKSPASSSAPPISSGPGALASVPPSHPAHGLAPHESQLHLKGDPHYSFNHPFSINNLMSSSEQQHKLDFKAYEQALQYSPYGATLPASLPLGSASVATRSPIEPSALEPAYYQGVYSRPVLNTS
Notes: whole designed probe, mean of two concentrations, ends assumed
All sequences stand within: GTGAGCGGTGCCCATTGATGGGGAAC … TTTCACTGGGATCGTGGGGAC
Strand | normalised bound fraction
ATATCTGCTTTGCCTTATAAGATGAGAATTAAACATATTATTAGTTAAACTTGGCTAAATTCTATGCAGTAATAGATAACCCCAAAACCTCTATGTAATCTTAAAGTTATTCCCCGATAAAGCAATTTACTGTGGGCCTGGCAACTCTTTCATGCAGCCTTCTTGCTGATCACAGCTAATGGAGACATCGTCA | -0.0129 ratio
CATCAGAGTGCCCCCAAAAGGCAGCCCGGGAAATGAGCAGGGGCGCGCTGACCTTTAGCGAGACAGCGAAGGTTATGCACATAACATTTGCTTGTTTACTTTGCAAAATAAGCAACGAGTTGGAAACTCCGAGTTTCGCCTGCGCCTCCGCGCACTTAAAAAACAACAACAGGAACCAGAGGCTGCCGGTCTT | 0.453 ratio
CTAGTGTTTCTGAAAGTCAGTTCTGTAGCCACTGGGATCACCTAATATGCAGATAACCTTATGACGCAGCATTAGCTGATGAACTCTCTGGCTTTGTTTACTTTGAGATGTTTTAAAATTTCATTGGATTGAGTGAACTCTGCCATCTTTTAGCAACTATTTTTCTCCTATTCACAGTAGCCTAGATTAAATA | 0.479 ratio
GTGTGCTAGCCTGTGAGTTTTTCTCTCCAACTAGCCTGGGTACTCAGGAAAGTGAGATCAACTTCTGGGTGGCCTGACTTGGGTGTAGCCTGTGCAAATAGGGGAGACAGTTGACATACAGATGAAAGGGGAGATGGGAAGCCATACAGAGGAAGGAGAAGATCAGGAACCAGAGATAAGATAATTCTGTAAA | 0.241 ratio
TTTCCAGCCCTTAGTTTCTGGCATTTAACCTGACTCTGGTCCCTGAATGGCATGGGAGTGCTTTCAACCACAGGCTGACTCATTCATGCCACTTGTTTGCTTTTCTGTCACATTCTGATCTACAGAGATCTTTATTTGCTTTGTGTTTCCAATGGAGAAAGAGCTTGGGAAGGGAGGATCCTAATTGTCTAAA | 0.507 ratio
ATCTTCCCCCTCTTCCTTGCCCCACCAGCTCACCTACGGGGGTTATTTGCACAAAGGAAAATAAATAAAGCCGGCATTCGTTAACCCTCTTCACGCGCATACTGCTGTTTGCTCTGGATCTAACATGGTCCTTTGGCGACGCCAGGCTCCGGGAGAGCAAAGCACCGTGTCAGGGCCATGATCCGGGCTCGCC | 0.391 ratio
TGTGAGCTTGTTTGTTCACTGAAAGCACTCATCATAAGCCTCATCAATATAAAAACTCTTGGTAGGACCAAGGGCAAACTAAGCTGAAGATCAAGATTGCATAGTTCACCTGCAACTTACCAACGTAGTTCAGAATAGAGTATGTCAAACCACCTTATAAAAACTGGGGCATCTGAAGGCATAAAAGTGTTCA | 0.225 ratio
GTGTTCAAGGAGGAGCTTTATTAACTCAGCACTTCTAACAATTTCCTAGGTACTTATAAGACATTTCCAAAGTCAAGTTAATGAGCTGCAGAGTAAACAAGAGTCTCTCGTAGTTTCTGAAGTTCGAGAAGAAATTCTACAGAAAGAGGTAAGAAATGGCCAAAATATTGGGCTAAAATAAGTTTTTCTTAGG | 0.317 ratio

Set 4 — method: protein binding microarray; form: double-stranded DNA, one strand shown; matrix: in vitro; concentration: not given; relative to: not given; reading: higher = stronger binding
Target: Histone acetyltransferase KAT6A, winged helix 1, GST fusion (KAT6A, Homo sapiens, UniProt Q92794, residues 1-85)
Notes: 8-mer, flanks averaged, mean of 2 arrays, mostly near background
Residues (chain): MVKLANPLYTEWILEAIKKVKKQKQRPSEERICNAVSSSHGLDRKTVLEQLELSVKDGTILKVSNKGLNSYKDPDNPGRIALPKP
Strand | E-score
ATGCCTCG | -0.0843
AATTCGGG | 0.0311
CTCGCCGA | 0.209
ACGCAGCA | 0.0255
CACACCCC | -0.0534
AGAACACA | -0.309
CGTAAGTC | 0.032
GGACGTAC | 0.0278
GAAATCCC | 0.0157
ACGCGTCG | 0.424
AAAAATGT | -0.0265
ACTAGCAT | -0.0242
CTAATATC | -0.097
CTAGCAAG | -0.223
ACCGTAAT | 0.128
CATCGTGA | 0.00914
TGAGGGAA | -0.16
AACCGCGA | 0.243
AGAGGGAG | -0.237
TATAGATA | -0.149
CACCATGC | -0.0377

Set 5 — organism: Saccharomyces cerevisiae; effect on: binding; method: yeast competitive growth sequencing; form: peptide; strain: cyclin D1-Cln2 strain; matrix: peptide tiling library; reading: direction not given
Sequence | enrichment score
YLYLLLTQSLWCRV | -1.81
LENIEPLQVSFAVLSS | 2.36
NESHLDKEHDAVEVAD | 1.47
AKRSLGFLPQPVPL | -1.29
RTEALEQGGLPKKLIF | 0.801
SPPRGRRLFPPGPAGF | 0.0631
KRCATPVIIDEILPSK | 1.78
GPVKLEFDVSDGAT | 0.23
VKRLNFRSEEME | -2.01
PHKTFRKLRLFDTPHT | -2.34

A few entries again (set 5):
Sequence | enrichment score
YLYLLLTQSLWCRV | -1.81
LENIEPLQVSFAVLSS | 2.36
NESHLDKEHDAVEVAD | 1.47
AKRSLGFLPQPVPL | -1.29
RTEALEQGGLPKKLIF | 0.801
SPPRGRRLFPPGPAGF | 0.0631
KRCATPVIIDEILPSK | 1.78
GPVKLEFDVSDGAT | 0.23
VKRLNFRSEEME | -2.01
PHKTFRKLRLFDTPHT | -2.34
